Measured values pooled from the literature.
ERBB2: Receptor tyrosine-protein kinase erbB-2 (ERBB2, Homo sapiens, UniProt P04626)
Sequence of UniProt Q8N8S7 (whole entry, looked up): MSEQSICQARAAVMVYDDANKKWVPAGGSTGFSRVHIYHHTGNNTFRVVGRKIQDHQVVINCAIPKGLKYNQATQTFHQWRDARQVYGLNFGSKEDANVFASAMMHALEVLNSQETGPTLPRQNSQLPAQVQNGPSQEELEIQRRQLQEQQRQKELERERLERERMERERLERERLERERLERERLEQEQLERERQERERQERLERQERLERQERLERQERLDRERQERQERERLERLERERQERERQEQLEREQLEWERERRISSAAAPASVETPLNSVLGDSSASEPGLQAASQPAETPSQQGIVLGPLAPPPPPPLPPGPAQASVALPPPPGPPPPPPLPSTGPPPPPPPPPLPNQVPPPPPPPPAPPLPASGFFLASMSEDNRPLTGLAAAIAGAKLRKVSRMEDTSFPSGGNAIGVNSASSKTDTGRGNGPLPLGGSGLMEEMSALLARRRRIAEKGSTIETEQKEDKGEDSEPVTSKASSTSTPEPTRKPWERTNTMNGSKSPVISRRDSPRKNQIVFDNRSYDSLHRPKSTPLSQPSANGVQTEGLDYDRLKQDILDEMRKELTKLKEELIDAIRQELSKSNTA
Sequence of UniProt P10415 (whole entry, looked up): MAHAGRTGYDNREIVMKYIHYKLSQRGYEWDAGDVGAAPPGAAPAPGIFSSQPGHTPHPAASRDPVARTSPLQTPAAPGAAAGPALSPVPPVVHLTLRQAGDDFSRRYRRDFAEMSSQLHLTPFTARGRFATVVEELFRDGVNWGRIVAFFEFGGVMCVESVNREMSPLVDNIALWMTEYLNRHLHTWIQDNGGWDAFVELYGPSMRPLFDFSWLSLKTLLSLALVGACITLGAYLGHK
Sequence of UniProt Q05655 (whole entry, looked up): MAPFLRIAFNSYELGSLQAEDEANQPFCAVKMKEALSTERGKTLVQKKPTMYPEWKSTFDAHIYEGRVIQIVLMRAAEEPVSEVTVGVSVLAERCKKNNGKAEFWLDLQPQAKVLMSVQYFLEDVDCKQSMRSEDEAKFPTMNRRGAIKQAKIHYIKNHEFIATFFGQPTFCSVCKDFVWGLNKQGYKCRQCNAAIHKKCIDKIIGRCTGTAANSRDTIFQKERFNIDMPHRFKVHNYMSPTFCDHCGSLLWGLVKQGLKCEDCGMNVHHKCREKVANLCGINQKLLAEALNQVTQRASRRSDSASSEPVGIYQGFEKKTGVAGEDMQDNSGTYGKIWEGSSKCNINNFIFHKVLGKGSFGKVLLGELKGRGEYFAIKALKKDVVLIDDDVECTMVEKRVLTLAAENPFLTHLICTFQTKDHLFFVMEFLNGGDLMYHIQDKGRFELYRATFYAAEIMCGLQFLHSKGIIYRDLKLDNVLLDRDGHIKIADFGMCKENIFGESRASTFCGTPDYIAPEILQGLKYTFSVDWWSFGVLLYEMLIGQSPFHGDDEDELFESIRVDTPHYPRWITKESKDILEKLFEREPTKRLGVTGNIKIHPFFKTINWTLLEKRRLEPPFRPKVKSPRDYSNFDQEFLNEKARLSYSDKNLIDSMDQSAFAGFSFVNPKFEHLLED
Sequence of UniProt Q96SW2 (whole entry, looked up): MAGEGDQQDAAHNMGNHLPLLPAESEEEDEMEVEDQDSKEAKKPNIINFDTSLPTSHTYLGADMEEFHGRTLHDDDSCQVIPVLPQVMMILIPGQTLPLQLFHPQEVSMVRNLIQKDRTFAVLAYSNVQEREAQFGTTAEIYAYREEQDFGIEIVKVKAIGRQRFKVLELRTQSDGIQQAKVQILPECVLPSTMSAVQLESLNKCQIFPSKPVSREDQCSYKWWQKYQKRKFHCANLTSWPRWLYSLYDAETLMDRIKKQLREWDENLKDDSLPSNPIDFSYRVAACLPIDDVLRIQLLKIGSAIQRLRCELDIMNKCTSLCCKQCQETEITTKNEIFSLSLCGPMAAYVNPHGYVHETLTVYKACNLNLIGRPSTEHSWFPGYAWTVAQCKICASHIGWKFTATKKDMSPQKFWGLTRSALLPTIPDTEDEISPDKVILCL
Sequence of UniProt P08510 (whole entry, unmodified, looked up): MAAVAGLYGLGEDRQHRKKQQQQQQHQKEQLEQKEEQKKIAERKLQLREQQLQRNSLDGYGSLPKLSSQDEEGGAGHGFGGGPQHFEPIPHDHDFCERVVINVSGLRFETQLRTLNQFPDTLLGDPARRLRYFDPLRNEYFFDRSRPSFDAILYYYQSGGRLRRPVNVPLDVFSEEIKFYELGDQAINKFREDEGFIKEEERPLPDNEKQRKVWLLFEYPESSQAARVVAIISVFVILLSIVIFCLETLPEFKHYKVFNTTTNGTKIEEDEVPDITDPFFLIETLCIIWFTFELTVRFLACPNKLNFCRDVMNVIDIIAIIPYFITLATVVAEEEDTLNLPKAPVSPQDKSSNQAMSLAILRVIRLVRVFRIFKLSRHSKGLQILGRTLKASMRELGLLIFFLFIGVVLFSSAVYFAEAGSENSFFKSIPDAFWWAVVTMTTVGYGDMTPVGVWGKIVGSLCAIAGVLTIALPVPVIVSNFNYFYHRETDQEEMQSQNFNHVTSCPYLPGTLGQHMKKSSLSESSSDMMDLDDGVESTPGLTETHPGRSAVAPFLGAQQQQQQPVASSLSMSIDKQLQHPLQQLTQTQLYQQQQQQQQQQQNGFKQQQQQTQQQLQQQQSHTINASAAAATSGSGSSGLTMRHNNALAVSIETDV
Sequence of UniProt P50552 (whole entry, looked up): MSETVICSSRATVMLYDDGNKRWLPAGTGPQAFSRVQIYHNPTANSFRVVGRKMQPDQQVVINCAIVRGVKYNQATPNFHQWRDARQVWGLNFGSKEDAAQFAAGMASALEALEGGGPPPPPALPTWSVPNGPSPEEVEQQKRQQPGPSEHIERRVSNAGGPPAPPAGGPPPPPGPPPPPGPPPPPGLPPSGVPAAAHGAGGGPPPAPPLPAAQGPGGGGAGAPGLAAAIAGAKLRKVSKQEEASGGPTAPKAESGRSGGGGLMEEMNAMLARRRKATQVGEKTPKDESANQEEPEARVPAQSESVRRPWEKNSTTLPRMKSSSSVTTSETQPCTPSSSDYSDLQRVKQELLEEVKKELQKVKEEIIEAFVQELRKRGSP
Sequence of UniProt P00811 (whole entry, looked up): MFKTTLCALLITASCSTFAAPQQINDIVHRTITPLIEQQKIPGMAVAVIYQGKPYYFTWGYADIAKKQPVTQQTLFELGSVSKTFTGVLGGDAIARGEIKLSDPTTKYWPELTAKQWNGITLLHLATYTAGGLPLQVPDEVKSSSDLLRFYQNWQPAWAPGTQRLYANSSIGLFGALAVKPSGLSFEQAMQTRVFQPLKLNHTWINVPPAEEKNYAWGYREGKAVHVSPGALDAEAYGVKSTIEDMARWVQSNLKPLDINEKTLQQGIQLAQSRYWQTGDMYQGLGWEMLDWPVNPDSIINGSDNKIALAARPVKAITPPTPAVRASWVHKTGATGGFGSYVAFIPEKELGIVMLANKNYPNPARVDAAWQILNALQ

SMILES | target | test | conditions | Kd [µM]
Cn1c2cccc(=O)c-2nc2ccccc21 | TetR-family regulator NalD (Pseudomonas aeruginosa, UniProt Q9HY46) | binding, competitive microscale thermophoresis | – | 36.8
CC(C)C[C@H](NC(=O)[C@@H](NC(=O)[C@H](C)NC(=O)[C@@H](NC(=O)CN)C(C)C)C(C)C)C(=O)N[C@@H](CC(=O)O)C(=O)N[C@H]1CC(=O)NC1=O | Protein cereblon, with DDB1 (CRBN, Homo sapiens, UniProt Q96SW2) | binding | – | 0.00686
O=C(N[C@@H]1c2ccccc2C[C@H]1N1CCCC1)c1ccc(-c2ccnc3[nH]ccc23)nc1 | PRKCD (Homo sapiens, UniProt Q05655) | binding, competition with immobilised ligand | – | 0.25
CC(=O)N[C@@H](CO)C(=O)N[C@@H](Cc1ccccc1)C(=O)N[C@@H](CCC(=O)O)C(=O)N[C@@H](Cc1ccccc1)C(=O)N1CC[C@@H]2C=C[C@H]3CC[C@@H](C(=O)N4CC[C@@H]5C=C[C@H]6CC[C@@H](C(=O)N[C@H](C(=O)N[C@@H](CCC(=O)O)C(=O)N[C@@H](CC(=O)O)C(=O)N[C@@H](CCC(=O)O)C(=O)N[C@@H](CC(C)C)C(N)=O)[C@@H](C)O)N6C(=O)[C@H]54)N3C(=O)[C@H]21 | VASP (Homo sapiens, UniProt P50552) | binding, fluorescence | – | 19
O=C1OC(=O)C2C3C=CC(C3)C12 (centres unmarked) | Beta-lactamase (ampC, Escherichia coli K-12, UniProt P00811) | – | – | 1900
CCCC[C@H](NC(=O)[C@H](CCC(=O)O)NC(=O)[C@H](CCCCN)NC(=O)[C@H](CO)NC(=O)[C@H](Cc1ccccc1)NC(C)=O)C(=O)N[C@@H](CCCNC(=N)N)C(=O)N[C@@H](CC(N)=O)C(=O)N[C@@H](CCCNC(=N)N)C(=O)N[C@@H](Cc1ccc(O)cc1)C(=O)N[C@@H](Cc1c[nH]c2ccccc12)C(=O)N[C@@H](CCCC(=O)NCCN(CC(=O)NCCN(CC(=O)NCCN(CC(=O)NCCN(CC(=O)N[C@@H](CCCNC(=N)N)C(N)=O)C(=O)Cn1cnc2c(=O)[nH]c(N)nc21)C(=O)Cn1ccc(N)nc1=O)C(=O)Cn1ccc(N)nc1=O)C(=O)Cn1cnc2c(=O)[nH]c(N)nc21)C(=O)N[C@@H](CS)C(=O)N[C@@H](C)C(=O)N[C@@H](CC(C)C)C(=O)N[C@@H](CC(=O)O)C(=O)N1CCC[C@H]1C(=O)N[C@@H](CC(N)=O)C(=O)N[C@@H](CC(C)C)C(=O)N[C@H](C(=O)N[C@@H](CC(N)=O)C(=O)N[C@@H](CCC(N)=O)C(=O)N[C@@H](CCC(N)=O)C(=O)N[C@@H](CCCCN)C(=O)N[C@@H](CCCNC(=N)N)C(=O)N[C@@H](C)C(=O)N[C@@H](CCCCNC(=O)CN(CCNC(=O)CN(CCNC(=O)CN(CCNC(=O)CN(CCNC(=O)[C@H](CCCNC(=N)N)NC(C)=O)C(=O)Cn1ccc(N)nc1=O)C(=O)Cn1cnc2c(=O)[nH]c(N)nc21)C(=O)Cn1cnc2c(=O)[nH]c(N)nc21)C(=O)Cn1ccc(N)nc1=O)C(=O)N[C@H](C(=O)N[C@@H](CCCNC(=N)N)C(=O)N[C@@H](CO)C(=O)N[C@H](C(=O)N[C@@H](Cc1ccc(O)cc1)C(=O)N[C@@H](CCC(=O)O)C(=O)N[C@@H](CCC(=O)O)C(=O)NCC(=O)N[C@@H](CCC(=O)O)C(N)=O)[C@@H](C)CC)[C@@H](C)CC)[C@@H](C)O | ERBB2 | binding, SPR | 25 °C, immobilised target | 0.0021
CC(=O)N[C@@H](CO)C(=O)N[C@@H](Cc1ccccc1)C(=O)N[C@@H](CCC(=O)O)C(=O)N[C@@H](Cc1ccccc1)C(=O)N1CCC[C@]12C=C[C@@H]1CC[C@@H](C(=O)N3CCC[C@H]3C(=O)N3CCC[C@H]3C(=O)N[C@H](C(=O)N[C@@H](CCC(=O)O)C(=O)N[C@@H](CC(=O)O)C(=O)N[C@@H](CCC(=O)O)C(=O)N[C@@H](CC(C)C)C(N)=O)[C@@H](C)O)N1C2=O | Protein enabled homolog (ENAH, UniProt Q8N8S7) | binding, fluorescence | – | 12
CC[C@H](C)[C@H](NC(=O)[C@H](CCC(=O)O)NC(=O)[C@H](CCCNC(=N)N)NC(=O)[C@H](C)NC(=O)[C@H](Cc1c[nH]c2ccccc12)NC(=O)[C@H](CCC(N)=O)NC(=O)[C@H](CCC(=O)O)NC(=O)[C@H](CCC(=O)O)NC(=O)[C@H](CCC(=O)O)NC(=O)CNC(=O)[C@H](CCCNC(=N)N)NC(=O)CCCCCNC(=O)CCNC(=S)Nc1ccc2c(c1)C(=O)OC21c2ccc(O)cc2Oc2cc(O)ccc21)C(=O)NCC(=O)N[C@@H](C)C(=O)N[C@@H](CCC(N)=O)C(=O)N[C@@H](CC(C)C)C(=O)N[C@@H](CCCNC(=N)N)C(=O)N[C@@H](CCCNC(=N)N)C(=O)N[C@@H](CCSC)C(=O)N[C@@H](C)C(=O)N[C@@H](CC(=O)O)C(=O)N[C@@H](CC(=O)O)C(=O)N[C@@H](CC(C)C)C(=O)N[C@@H](CC(N)=O)C(=O)O | BCL2 (Homo sapiens, UniProt P10415) | binding | – | 0.024
O=C1C2CCCC(C(C(O)CO)CN1Cc1ccccn1)N2S(=O)(=Nc1ccccc1)c1cc(Cl)cc(Cl)c1 (centres unmarked) | uncharacterized protein, residues 23-253 (Pseudomonas aeruginosa, UniProt Q9HYX8) | binding, competitive fluorescence polarization | 30 min, protein 40 nM, with: fluorescent tracer 1 nM | > 40
CC[C@H](C)[C@H](NC(=O)[C@H](CCCCN)NC(=O)[C@H](C)NC(=O)[C@H](CCCNC(=N)N)NC(=O)[C@H](CCCCN)NC(=O)[C@H](CCC(N)=O)NC(=O)[C@H](CCC(N)=O)NC(=O)[C@H](CC(N)=O)NC(=O)[C@@H](NC(=O)[C@H](CC(C)C)NC(=O)[C@H](CC(N)=O)NC(=O)[C@@H]1CCCN1C(=O)[C@H](CC(=O)O)NC(=O)[C@H](CC(C)C)NC(=O)[C@H](C)NC(=O)[C@H](C)NC(=O)[C@H](CCC(=O)O)NC(=O)[C@H](Cc1c[nH]c2ccccc12)NC(=O)[C@H](Cc1ccc(O)cc1)NC(=O)[C@H](CCCNC(=N)N)NC(=O)[C@H](CC(N)=O)NC(=O)[C@H](CCCNC(=N)N)NC(=O)[C@H](CCSC)NC(=O)[C@H](CCC(=O)O)NC(=O)[C@H](CCCCN)NC(=O)[C@H](CO)NC(=O)[C@H](Cc1ccccc1)NC(C)=O)[C@@H](C)O)C(=O)N[C@@H](CCCNC(=N)N)C(=O)N[C@@H](CO)C(=O)N[C@H](C(=O)N[C@@H](Cc1ccc(O)cc1)C(=O)N[C@@H](CCC(=O)O)C(=O)N[C@@H](CCC(=O)O)C(=O)NCC(=O)N[C@@H](CCC(=O)O)C(N)=O)[C@@H](C)CC | ERBB2 | binding, SPR | – | 0.0058
CSCC[C@@H](N)C(=O)N[C@H](C)C(=O)N[C@H](C)C(=O)N[C@@H](C(=O)N[C@H](C)C(=O)NCC(=O)N[C@H](CC(C)C)C(=O)N[C@H](Cc1ccc(O)cc1)C(=O)NCC(=O)N[C@H](CC(C)C)C(=O)NCC(=O)N[C@H](CCC(=O)O)C(=O)N[C@H](CC(=O)O)C(=O)N[C@H](CCCNC(=N)N)C(=O)N[C@H](CCC(N)=O)C(=O)N[C@H](Cc1c[nH]cn1)C(=O)N[C@H](CCCNC(=N)N)C(=O)N[C@H](CCCCN)C(=O)N[C@H](CCCCN)C(=O)N[C@H](CCC(N)=O)C(N)=O)C(C)C | Sh, DEL6-46 (Drosophila melanogaster, UniProt P08510) | ion current, blocker, inside-out patch clamp | +50 mV | 6.4

For quick reference, copied from above:
SMILES | target | test | conditions | Kd [µM]
CC(C)C[C@H](NC(=O)[C@@H](NC(=O)[C@H](C)NC(=O)[C@@H](NC(=O)CN)C(C)C)C(C)C)C(=O)N[C@@H](CC(=O)O)C(=O)N[C@H]1CC(=O)NC1=O | Protein cereblon, with DDB1 (CRBN, Homo sapiens, UniProt Q96SW2) | binding | – | 0.00686
CCCC[C@H](NC(=O)[C@H](CCC(=O)O)NC(=O)[C@H](CCCCN)NC(=O)[C@H](CO)NC(=O)[C@H](Cc1ccccc1)NC(C)=O)C(=O)N[C@@H](CCCNC(=N)N)C(=O)N[C@@H](CC(N)=O)C(=O)N[C@@H](CCCNC(=N)N)C(=O)N[C@@H](Cc1ccc(O)cc1)C(=O)N[C@@H](Cc1c[nH]c2ccccc12)C(=O)N[C@@H](CCCC(=O)NCCN(CC(=O)NCCN(CC(=O)NCCN(CC(=O)NCCN(CC(=O)N[C@@H](CCCNC(=N)N)C(N)=O)C(=O)Cn1cnc2c(=O)[nH]c(N)nc21)C(=O)Cn1ccc(N)nc1=O)C(=O)Cn1ccc(N)nc1=O)C(=O)Cn1cnc2c(=O)[nH]c(N)nc21)C(=O)N[C@@H](CS)C(=O)N[C@@H](C)C(=O)N[C@@H](CC(C)C)C(=O)N[C@@H](CC(=O)O)C(=O)N1CCC[C@H]1C(=O)N[C@@H](CC(N)=O)C(=O)N[C@@H](CC(C)C)C(=O)N[C@H](C(=O)N[C@@H](CC(N)=O)C(=O)N[C@@H](CCC(N)=O)C(=O)N[C@@H](CCC(N)=O)C(=O)N[C@@H](CCCCN)C(=O)N[C@@H](CCCNC(=N)N)C(=O)N[C@@H](C)C(=O)N[C@@H](CCCCNC(=O)CN(CCNC(=O)CN(CCNC(=O)CN(CCNC(=O)CN(CCNC(=O)[C@H](CCCNC(=N)N)NC(C)=O)C(=O)Cn1ccc(N)nc1=O)C(=O)Cn1cnc2c(=O)[nH]c(N)nc21)C(=O)Cn1cnc2c(=O)[nH]c(N)nc21)C(=O)Cn1ccc(N)nc1=O)C(=O)N[C@H](C(=O)N[C@@H](CCCNC(=N)N)C(=O)N[C@@H](CO)C(=O)N[C@H](C(=O)N[C@@H](Cc1ccc(O)cc1)C(=O)N[C@@H](CCC(=O)O)C(=O)N[C@@H](CCC(=O)O)C(=O)NCC(=O)N[C@@H](CCC(=O)O)C(N)=O)[C@@H](C)CC)[C@@H](C)CC)[C@@H](C)O | ERBB2 | binding, SPR | 25 °C, immobilised target | 0.0021
